Assay results of several laboratories.
Lines come from different studies, so protocols differ. Numbers after ± are the reported error.
FGFR1: Fibroblast growth factor receptor 1 (FGFR1, Homo sapiens, UniProt P11362)
Sequence of UniProt P11362 (whole entry, looked up): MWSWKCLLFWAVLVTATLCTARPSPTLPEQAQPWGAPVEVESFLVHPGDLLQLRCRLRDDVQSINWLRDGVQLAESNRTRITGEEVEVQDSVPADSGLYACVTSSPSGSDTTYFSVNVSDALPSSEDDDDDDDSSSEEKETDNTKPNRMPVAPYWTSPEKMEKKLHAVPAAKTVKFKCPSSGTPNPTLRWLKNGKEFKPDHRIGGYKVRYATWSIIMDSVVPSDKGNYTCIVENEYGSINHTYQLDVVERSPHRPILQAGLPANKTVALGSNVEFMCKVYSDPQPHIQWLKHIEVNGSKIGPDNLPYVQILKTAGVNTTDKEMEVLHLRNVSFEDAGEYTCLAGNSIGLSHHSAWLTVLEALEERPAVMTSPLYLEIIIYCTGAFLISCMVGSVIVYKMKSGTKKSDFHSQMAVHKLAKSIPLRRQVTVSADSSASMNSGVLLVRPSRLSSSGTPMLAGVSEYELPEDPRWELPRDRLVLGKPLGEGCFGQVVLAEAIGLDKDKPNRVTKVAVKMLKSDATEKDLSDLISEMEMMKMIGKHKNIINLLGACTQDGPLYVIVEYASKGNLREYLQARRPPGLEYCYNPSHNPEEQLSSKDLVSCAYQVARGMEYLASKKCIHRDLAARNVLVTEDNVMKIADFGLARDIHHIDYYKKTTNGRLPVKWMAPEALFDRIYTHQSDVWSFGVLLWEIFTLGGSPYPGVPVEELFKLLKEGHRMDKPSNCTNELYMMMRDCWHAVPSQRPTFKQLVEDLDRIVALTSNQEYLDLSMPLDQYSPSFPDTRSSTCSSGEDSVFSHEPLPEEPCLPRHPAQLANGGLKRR
Sequence of UniProt P08546 (whole entry, looked up): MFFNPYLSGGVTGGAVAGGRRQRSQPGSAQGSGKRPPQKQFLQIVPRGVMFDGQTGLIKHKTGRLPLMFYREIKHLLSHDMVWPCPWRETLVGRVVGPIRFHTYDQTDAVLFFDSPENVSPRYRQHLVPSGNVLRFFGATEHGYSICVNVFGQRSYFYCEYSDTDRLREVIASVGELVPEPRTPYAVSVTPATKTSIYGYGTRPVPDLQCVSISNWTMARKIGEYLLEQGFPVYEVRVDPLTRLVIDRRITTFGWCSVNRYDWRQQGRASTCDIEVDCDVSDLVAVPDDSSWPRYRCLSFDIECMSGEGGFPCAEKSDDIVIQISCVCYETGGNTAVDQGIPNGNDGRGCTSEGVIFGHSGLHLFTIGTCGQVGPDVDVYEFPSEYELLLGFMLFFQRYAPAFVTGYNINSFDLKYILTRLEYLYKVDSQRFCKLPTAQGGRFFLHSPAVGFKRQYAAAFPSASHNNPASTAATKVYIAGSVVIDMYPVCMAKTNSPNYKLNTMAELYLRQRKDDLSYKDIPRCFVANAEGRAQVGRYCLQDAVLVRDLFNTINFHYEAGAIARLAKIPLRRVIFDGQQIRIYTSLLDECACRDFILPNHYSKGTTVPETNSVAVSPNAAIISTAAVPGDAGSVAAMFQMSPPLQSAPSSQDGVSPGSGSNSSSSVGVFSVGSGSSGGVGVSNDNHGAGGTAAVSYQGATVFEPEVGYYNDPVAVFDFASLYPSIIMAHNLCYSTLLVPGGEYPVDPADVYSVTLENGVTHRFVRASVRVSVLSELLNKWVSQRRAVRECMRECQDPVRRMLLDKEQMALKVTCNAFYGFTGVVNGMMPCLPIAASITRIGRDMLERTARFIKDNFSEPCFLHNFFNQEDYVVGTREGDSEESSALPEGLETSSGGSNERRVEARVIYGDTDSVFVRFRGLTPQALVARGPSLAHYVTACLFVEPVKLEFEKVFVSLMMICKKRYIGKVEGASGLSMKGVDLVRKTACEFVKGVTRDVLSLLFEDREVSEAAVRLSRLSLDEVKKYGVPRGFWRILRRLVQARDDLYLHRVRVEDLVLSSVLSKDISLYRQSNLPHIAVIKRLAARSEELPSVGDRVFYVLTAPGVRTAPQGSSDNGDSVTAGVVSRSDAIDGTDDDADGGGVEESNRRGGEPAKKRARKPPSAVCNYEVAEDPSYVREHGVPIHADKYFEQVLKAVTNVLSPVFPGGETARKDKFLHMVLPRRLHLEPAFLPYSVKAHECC
Sequence of UniProt Q9GZX7 (whole entry, looked up): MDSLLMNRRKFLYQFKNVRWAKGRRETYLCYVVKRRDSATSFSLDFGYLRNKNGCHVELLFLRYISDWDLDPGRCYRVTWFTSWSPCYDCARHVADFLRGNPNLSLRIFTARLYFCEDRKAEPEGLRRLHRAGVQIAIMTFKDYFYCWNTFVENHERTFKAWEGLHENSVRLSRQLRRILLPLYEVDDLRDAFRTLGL
Sequence of UniProt Q6P179 (whole entry, looked up): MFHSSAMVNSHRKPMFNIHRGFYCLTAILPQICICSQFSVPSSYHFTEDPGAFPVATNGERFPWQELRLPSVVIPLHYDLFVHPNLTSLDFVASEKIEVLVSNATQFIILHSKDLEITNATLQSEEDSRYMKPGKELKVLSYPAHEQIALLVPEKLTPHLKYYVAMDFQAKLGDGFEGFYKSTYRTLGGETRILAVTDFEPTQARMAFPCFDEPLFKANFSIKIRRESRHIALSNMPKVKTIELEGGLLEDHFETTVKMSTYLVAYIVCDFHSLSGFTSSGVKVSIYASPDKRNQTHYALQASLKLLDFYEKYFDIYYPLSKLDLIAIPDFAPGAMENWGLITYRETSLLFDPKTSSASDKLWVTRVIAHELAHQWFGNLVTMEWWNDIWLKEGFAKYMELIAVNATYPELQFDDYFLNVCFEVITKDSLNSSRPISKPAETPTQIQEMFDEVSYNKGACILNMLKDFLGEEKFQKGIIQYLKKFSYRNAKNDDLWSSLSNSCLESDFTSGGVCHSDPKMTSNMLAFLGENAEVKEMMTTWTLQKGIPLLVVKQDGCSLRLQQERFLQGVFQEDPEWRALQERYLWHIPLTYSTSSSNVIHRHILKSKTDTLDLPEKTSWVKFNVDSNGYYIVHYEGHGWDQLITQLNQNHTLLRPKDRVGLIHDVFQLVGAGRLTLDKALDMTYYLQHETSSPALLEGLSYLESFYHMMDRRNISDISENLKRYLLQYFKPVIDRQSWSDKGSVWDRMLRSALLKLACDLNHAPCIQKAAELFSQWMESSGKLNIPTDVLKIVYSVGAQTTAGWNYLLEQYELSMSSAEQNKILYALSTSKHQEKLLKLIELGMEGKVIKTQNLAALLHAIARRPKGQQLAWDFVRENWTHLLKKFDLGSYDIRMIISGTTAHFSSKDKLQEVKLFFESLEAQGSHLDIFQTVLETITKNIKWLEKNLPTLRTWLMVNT
Sequence of UniProt Q08345 (whole entry, looked up): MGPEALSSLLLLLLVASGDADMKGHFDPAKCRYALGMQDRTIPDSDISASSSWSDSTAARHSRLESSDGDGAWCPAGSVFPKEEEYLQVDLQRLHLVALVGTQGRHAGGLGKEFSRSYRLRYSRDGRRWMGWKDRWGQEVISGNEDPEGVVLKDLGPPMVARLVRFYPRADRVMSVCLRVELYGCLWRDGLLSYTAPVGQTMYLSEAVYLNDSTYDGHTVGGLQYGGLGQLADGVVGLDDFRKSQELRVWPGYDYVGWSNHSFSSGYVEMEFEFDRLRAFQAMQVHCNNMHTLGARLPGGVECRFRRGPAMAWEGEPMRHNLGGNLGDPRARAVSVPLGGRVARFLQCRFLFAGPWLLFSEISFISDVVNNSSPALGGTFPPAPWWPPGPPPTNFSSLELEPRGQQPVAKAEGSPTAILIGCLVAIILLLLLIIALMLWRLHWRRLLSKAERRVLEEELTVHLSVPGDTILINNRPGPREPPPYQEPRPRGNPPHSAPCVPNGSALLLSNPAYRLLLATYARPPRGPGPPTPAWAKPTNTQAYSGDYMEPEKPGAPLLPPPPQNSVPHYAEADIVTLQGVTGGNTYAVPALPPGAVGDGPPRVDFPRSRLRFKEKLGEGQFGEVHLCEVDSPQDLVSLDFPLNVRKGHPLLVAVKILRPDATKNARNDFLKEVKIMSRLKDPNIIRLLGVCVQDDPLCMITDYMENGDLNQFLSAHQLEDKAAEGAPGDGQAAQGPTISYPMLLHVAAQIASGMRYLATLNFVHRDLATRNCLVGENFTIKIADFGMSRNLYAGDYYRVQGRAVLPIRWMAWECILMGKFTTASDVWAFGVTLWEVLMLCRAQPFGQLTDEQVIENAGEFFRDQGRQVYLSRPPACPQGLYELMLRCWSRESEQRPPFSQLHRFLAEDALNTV
Sequence of UniProt P0A0K8 (whole entry, looked up): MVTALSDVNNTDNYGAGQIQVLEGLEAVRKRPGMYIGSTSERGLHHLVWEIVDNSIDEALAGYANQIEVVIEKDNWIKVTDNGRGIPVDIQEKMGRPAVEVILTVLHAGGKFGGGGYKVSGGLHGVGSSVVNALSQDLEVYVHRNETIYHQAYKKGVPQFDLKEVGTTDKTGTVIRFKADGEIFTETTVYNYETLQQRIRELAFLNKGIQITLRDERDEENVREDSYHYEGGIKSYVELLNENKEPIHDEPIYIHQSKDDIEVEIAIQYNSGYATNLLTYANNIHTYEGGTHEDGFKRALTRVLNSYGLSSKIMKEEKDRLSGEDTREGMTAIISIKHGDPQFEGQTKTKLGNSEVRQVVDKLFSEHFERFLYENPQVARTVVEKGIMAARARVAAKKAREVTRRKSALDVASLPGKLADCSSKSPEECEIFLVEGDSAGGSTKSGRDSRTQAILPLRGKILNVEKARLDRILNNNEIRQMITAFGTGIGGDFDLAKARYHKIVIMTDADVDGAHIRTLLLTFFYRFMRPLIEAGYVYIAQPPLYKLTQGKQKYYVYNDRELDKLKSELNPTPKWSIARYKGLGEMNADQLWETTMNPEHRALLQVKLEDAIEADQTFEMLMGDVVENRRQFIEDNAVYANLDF

SMILES	target	test	system	setting	IC50
CO[C@H]1CN(c2ccc(C(N)=O)nn2)CC[C@H]1NC(=O)c1[nH]c(C)c(Cl)c1Cl	DNA gyrase subunit B (Staphylococcus aureus, UniProt P0A0K8)	enzyme activity, inhibitor, ADP detection	–	–	397 nM
O=C1Nc2ccc(Cl)cc2C1=Cc1ccc(-c2cccc(C(=O)NCC3CCNCC3)c2)o1 (mixture of isomers)	Serine/threonine-protein kinase pim-2 (PIM2, Homo sapiens, UniProt Q9P1W9)	enzyme activity, inhibitor	–	–	429 nM
COc1cc2nccc(Oc3ccc(NC(=S)NCC4CC4)c(Cl)c3)c2cc1C(N)=O	FGFR1	–	–	–	406 nM
CN(C)c1ccc2cc(S(=O)(=O)N3CC3C(N)=O)ccc2c1 (centres unmarked)	Protein disulfide-isomerase (P4HB, Homo sapiens, UniProt P07237)	enzyme activity, inhibitor, absorbance	–	pH 7.6	33000 nM
O=c1[nH]c(=O)c2ncn(CCOCP(=O)(O)OP(=O)(O)OP(=O)(O)O)c2[nH]1	DNA polymerase catalytic subunit (Human cytomegalovirus, UniProt P08546)	DNA polymerase activity, inhibitor	–	with: [3H]dTTP, calf thymus DNA	> 100000 nM
Cc1cccc(-c2nc(Nc3nc4ccccc4o3)ncc2C#N)c1	Metabotropic glutamate receptor 5 (Grm5, Rattus norvegicus, UniProt P31424)	calcium signal, antagonist	–	–	138 nM
COc1cc(Oc2ccnc3cc(OC)c(C(N)=O)cc23)ccc1NC(=S)NC1CC1	FGFR1	–	–	–	3140 nM
c1ccc(-c2cc3ccccc3o/c2=N\c2ccc3ccc4cccc5ccc2c3c45)cc1	Prostaglandin G/H synthase 2 (PTGS2, Homo sapiens, UniProt P35354)	enzyme activity, inhibitor	–	–	10.6 nM
O=C(O)[C@@H]1Cc2c([nH]c3ccccc23)[C@@H](c2ccc(Cl)cc2F)N1	MEP cytidylyltransferase IspD (Plasmodium falciparum, UniProt Q8I273)	enzyme activity, inhibitor, fluorimetric pyrophosphate	–	60 nM enzyme	140 ± 30 nM
O=C(Cn1ccnc1)N[C@H]1C[C@@H]1c1ccc(OCc2ccccc2)cc1	Aromatase (CYP19A1, Homo sapiens, UniProt P11511)	enzyme activity, inhibitor, fluorescence	–	–	800 nM
C=CC(=O)N1CCC(c2ccccc2)CC1	Protein FosB, ΔFosB isoform (Fosb, Mus musculus, UniProt P13346)	ΔFOSB homodimer DNA binding, fluorescence polarization	–	15 min, with: TMR-cdk5 oligonucleotide	> 200000 nM
CC/C(=C\c1ccc(OCC(=O)NC(C(=O)N2CCSCC2)c2ccccc2)cc1)[N+](=O)[O-] (centres unmarked)	Papain (Carica papaya, UniProt P00784)	enzyme activity, inhibitor, fluorescence	–	pH 5.5	7300 nM
NCCO[C@H]1[C@H](O)[C@@H](O)[C@@H]2O[C@@H]2[C@@H]1C(=O)O	Heparanase (HPSE, Homo sapiens, UniProt Q9Y251)	enzyme activity, inhibitor	–	pH 5, with preincubation	> 100000 nM
Cc1ccc(CNC(=O)[C@@H](NC(=O)[C@H](CCc2ccccc2)NC(=O)[C@H](CCc2ccccc2)N(C)C)C(C)C)cc1	20S proteasome (Plasmodium falciparum, UniProt A0A5K1K7U1+Q8IJT1)	β5 activity, inhibitor	–	with: Suc-LLVY-AMC, PA28α-activated	67.1 nM
CN(CC(=O)c1ccc2[nH]c(=O)[nH]c2c1)Cc1ccco1	Single-stranded DNA cytosine deaminase (AICDA, Homo sapiens, UniProt Q9GZX7)	deaminase activity, inhibitor, alkaline cleavage	293T lysate, untagged	pH 7.2, 37 °C	11000 nM
O=C(NO)[C@H](Cc1ccc(O)cc1)n1nncc1CNS(=O)(=O)c1ccc(-c2ccccc2)s1	Endoplasmic reticulum aminopeptidase 2 (ERAP2, Homo sapiens, UniProt Q6P179)	enzyme activity, inhibitor, fluorescence	–	–	3280 nM
Cc1ccc(NC(=O)Nc2ccc(Cl)c(NCc3cccnc3)c2)cc1F	Epithelial discoidin domain-containing receptor 1 (DDR1, Homo sapiens, UniProt Q08345)	enzyme activity, inhibitor, mobility shift	–	–	2240 nM

Excerpt of the above:
SMILES	target	test	system	setting	IC50
CN(CC(=O)c1ccc2[nH]c(=O)[nH]c2c1)Cc1ccco1	Single-stranded DNA cytosine deaminase (AICDA, Homo sapiens, UniProt Q9GZX7)	deaminase activity, inhibitor, alkaline cleavage	293T lysate, untagged	pH 7.2, 37 °C	11000 nM
COc1cc(Oc2ccnc3cc(OC)c(C(N)=O)cc23)ccc1NC(=S)NC1CC1	FGFR1	–	–	–	3140 nM
